Measurements collected from several papers.
Each numbered part is a random draw from the data of one study; scales do not carry over between parts. Substitutions count along the parent as printed.

Set 1 — technique: protein-binding microarray; molecule type: double-stranded DNA, one strand shown; medium: in vitro; concentration: not given; reading: higher = stronger binding
Target: Transcriptional repressor CTCF (CTCF, Homo sapiens, UniProt P49711, residues 1-727, full length assumed)
Notes: k-mer, scored over probes, only values ≥0.25
Residues (chain): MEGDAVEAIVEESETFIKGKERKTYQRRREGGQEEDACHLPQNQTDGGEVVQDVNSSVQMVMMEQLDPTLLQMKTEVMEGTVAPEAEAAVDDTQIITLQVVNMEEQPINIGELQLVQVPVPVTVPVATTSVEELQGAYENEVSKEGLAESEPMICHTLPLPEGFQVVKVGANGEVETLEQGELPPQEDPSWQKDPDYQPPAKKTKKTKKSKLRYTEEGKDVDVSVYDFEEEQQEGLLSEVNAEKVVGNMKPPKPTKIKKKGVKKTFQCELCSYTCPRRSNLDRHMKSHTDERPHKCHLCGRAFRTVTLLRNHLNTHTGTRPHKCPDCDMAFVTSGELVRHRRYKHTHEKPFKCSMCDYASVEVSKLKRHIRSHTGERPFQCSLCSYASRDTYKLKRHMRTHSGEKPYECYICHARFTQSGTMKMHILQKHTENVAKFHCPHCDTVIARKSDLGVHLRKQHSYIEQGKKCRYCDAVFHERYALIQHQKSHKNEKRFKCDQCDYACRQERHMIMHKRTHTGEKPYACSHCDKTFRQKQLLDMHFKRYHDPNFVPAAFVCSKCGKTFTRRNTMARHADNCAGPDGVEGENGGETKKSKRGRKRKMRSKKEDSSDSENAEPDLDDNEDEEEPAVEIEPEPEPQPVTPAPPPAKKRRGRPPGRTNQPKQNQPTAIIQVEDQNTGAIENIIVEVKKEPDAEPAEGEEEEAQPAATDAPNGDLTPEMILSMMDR
| Strand | E-score |
| --- | --- |
| AAATAATA | 0.335 |
| TATATACA | 0.28 |
| ATTAACAC | 0.353 |
| ATAAACGA | 0.307 |
| GTATACAA | 0.28 |
| AACTAATA | 0.32 |
| AGGCGGGG | 0.342 |
| CCGCGCGG | 0.301 |
| AAAAATGA | 0.313 |
| TAAAATGA | 0.287 |
| ATAGTATG | 0.291 |
| CGTAATAA | 0.266 |
| CATAATTA | 0.354 |
| ACCTAGCG | 0.268 |
| GTACGATA | 0.304 |
| TAGCGCAA | 0.33 |
| CCCCGCCC | 0.323 |

Set 2 — target: CCNA2, cyclin fold, Cln2 fusion (human); technique: yeast growth competition, sequencing; medium: yeast; notes: strong parent motif; baseline: not given; reading: higher = stronger binding
Starting sequence: INSM1 docking peptide (human); PKAIRKLHFEDEV; partner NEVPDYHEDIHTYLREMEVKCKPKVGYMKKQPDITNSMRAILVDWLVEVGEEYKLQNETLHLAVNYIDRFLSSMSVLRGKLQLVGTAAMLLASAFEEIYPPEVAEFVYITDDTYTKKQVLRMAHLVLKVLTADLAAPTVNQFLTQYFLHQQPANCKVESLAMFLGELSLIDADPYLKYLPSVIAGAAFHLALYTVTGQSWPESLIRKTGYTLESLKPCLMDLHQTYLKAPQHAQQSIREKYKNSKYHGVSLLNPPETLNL
| Variant | normalised enrichment score |
| --- | --- |
| L7W | 0.152 |
| H8I | 5.89 |
| L7S | 0.0461 |
| R5Q | 2.08 |
| L7I | 2.94 |
| E12S | 5.23 |
| E10T | 5.12 |
| F9E | -0.297 |
| F9I | -0.0859 |
| K2H | 4.82 |
| D11Y | 4.79 |
| F9A | -0.0261 |
| I4V | 5.55 |
| I4R | 6.73 |
| A3D | 0.134 |
| I4C | 6.18 |
| E10V | 4.33 |
| E10K | 4.24 |
| E10D | 5.2 |
| D11K | 4.65 |
| L7K | 0.125 |
| K2Y | 3.59 |
| R5L | 0.847 |
| R5S | 0.717 |
| F9N | -0.0481 |

Set 3 — technique: DHFR PCA, deep sequencing; medium: yeast; added: (+)-ABA 4.8 µM; baseline: wild-type fitted maximum; reading: higher = stronger binding
Target: ABI1, truncated, D143A, DHFR fusion (Arabidopsis thaliana)
Notes: methotrexate growth selection, single substitutions
Starting sequence: PYL1, truncated, DHFR fusion (Arabidopsis thaliana); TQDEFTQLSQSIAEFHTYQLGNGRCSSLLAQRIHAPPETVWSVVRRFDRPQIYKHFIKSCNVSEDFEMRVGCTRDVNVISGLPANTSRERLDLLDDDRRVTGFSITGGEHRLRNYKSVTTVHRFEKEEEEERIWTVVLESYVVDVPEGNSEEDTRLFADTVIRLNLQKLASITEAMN
| Variant | relative binding score [%] |
| --- | --- |
| T86G | 62.1 |
| R46I | -15.6 |
| S171A | 83.5 |
| Q7Y | 77.7 |
| S59D | 70.4 |
| V121P | -14.1 |
| V43G | 4.02 |
| I172C | 32.8 |
| I105N | -1.32 |
| E14G | 9.56 |
| R69M | 61.8 |
| Y115I | 10 |
| L138C | 13.2 |
| K126I | 71.4 |
| V40S | -2.57 |
| R98K | 82.7 |
| I172K | 13.8 |
| V137F | 5.31 |
| I172P | -0.893 |
| N85K | 91.9 |
| N114A | 8.13 |
| T173V | 69.5 |
| R113V | 65.5 |

Set 4 — target: CEBPA, bZIP domain (human); technique: DHFR protein complementation; medium: yeast; baseline: wild-type JUN-FOS pair; reading: higher = stronger binding
Notes: single substitutions, most at no-binding floor
Starting sequence: JUN, bZIP domain (human); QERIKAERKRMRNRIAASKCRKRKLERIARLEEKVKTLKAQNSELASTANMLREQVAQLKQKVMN; partner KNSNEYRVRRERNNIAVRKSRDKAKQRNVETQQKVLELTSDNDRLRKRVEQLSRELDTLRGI
| Variant | binding fitness [natural log] |
| --- | --- |
| M51K | -1.43 |
| T37V | -1.45 |
| S43Q | -1.43 |
| A29N | -1.38 |
| R30N | -1.36 |
| S47K | -1.39 |
| Q41S | -1.5 |
| Q55R | -1.29 |
| T37P | -1.52 |
| L31R | -1.5 |
| E32F | -1.4 |
| L52M | -1.33 |
| A46E | -1.3 |
